Results of several laboratories.
Parts stem from different laboratories: compare values within a part only. Changes are numbered by the printed parent chain.

Series 1 — technique: protein binding microarray; form: double-stranded DNA, one strand shown; sample: in vitro; tested at: not given; relative to: not given; direction: higher = stronger binding; measurement: E-score
Target: Histone acetyltransferase KAT6A, winged helix 2, GST fusion (KAT6A, Homo sapiens, UniProt Q92794, residues 85-181)
Notes: 8-mer, flanks averaged, mean of 2 arrays, mostly near background
Construct (chain): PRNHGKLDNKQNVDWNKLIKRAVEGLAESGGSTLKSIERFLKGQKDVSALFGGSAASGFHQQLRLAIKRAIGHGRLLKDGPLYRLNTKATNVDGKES
CGTTGACC: -0.0641
ATGGTTTC: 0.0132
GGTCGGAA: 0.162
TCCGAGGA: -0.0453
CAAGTGGG: 0.0472
CGAACAGA: 0.0161
AATCTTGG: -0.0987
CCCAAGCG: 0.118
CGTACGGA: -0.13
GCGTAGTA: -0.127
ACACGCGT: -0.0286
CCGTGGAC: -0.0962
AACTGTGT: -0.127
GATCGTAC: -0.233
AGCCTAGG: 0.0451
GACTTCGA: -0.128
TAAAGTAA: -0.109
ACCCCCTC: 0.0861
GCCCGAGC: 0.199
CGCTATTA: 0.0215
GAGTATCC: 0.0564
GAAGAGGA: -0.0531

Series 2 — technique: universal PBM; form: double-stranded DNA, one strand shown; sample: in vitro; tested at: 600 nM; direction: higher = stronger binding; measurement: E-score
Target: Sal-like protein 4, full length isoform A (SALL4, Homo sapiens, UniProt Q9UJQ4, residues 1-1053)
Chain of UniProt Q9UJQ4 (whole entry, looked up): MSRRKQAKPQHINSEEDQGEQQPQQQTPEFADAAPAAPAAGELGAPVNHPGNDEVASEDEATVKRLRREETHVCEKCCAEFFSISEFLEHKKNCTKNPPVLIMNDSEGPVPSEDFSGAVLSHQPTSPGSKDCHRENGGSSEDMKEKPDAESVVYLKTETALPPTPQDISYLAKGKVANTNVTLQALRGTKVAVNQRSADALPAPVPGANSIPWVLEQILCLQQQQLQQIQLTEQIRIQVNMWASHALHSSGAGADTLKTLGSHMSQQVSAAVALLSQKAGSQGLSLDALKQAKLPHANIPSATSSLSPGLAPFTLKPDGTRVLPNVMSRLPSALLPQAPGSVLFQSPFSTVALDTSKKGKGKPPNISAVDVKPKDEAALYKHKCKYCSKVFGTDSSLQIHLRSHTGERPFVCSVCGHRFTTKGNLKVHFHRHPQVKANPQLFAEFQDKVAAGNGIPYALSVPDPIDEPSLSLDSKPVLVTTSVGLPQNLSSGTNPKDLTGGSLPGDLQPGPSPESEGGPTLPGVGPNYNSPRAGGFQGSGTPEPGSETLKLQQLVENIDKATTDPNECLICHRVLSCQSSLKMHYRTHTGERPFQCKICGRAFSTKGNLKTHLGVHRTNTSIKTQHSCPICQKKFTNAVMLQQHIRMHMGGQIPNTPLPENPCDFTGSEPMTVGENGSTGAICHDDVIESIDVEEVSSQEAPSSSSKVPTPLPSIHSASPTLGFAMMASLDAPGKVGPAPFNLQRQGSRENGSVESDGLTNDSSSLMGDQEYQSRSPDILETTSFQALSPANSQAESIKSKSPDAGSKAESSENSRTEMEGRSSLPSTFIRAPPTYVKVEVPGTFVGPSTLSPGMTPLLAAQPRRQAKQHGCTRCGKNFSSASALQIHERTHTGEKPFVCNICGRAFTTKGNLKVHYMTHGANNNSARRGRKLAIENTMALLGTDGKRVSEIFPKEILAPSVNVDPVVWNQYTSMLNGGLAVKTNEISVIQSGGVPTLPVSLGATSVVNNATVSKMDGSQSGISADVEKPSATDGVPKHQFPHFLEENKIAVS
Notes: 8-mer, flanks averaged, mean of replicates
AAGATACT: 0.137
CAAAGGCA: -0.0716
ATAGCGGG: -0.0259
CACTAGGC: -0.172
CGCGTTTC: -0.286
TCCAACGA: 0.0379
TACGCCCA: -0.135
GGAGGAAA: -0.116
TGCTTGAA: 0.169
GCCATGGA: -0.246
GGTTGCAC: -0.262
TCTGCTCA: -0.0479
CAATCCGA: 0.0844
GACTCCAC: -0.25
CCGGGGCC: -0.418
GGCATAAA: 0.23
CGATTTCA: 0.134
GGTAGACC: -0.199
AACCAAGG: 0.0105
AGAATCAG: -0.0571
CAGCAGAC: -0.0804
AGACCAAA: 0.0838
ACCCATGA: -0.0854
GTCGGCTA: -0.09
TAAGGCCA: -0.121

Series 3 — technique: RNA Bind-n-Seq; form: RNA; sample: in vitro; tested at: 365 nM; relative to: no-protein control; direction: higher = stronger binding; measurement: RBNS enrichment (R)
Target: RNA binding protein fox-1 homolog 2, RRM domain, GST-SBP tag (RBFOX2, Homo sapiens, UniProt O43251-10, residues 100-194)
Notes: natural RNA segment, single round, ends assumed
Shared flanks, not repeated: GGGAGUUCUACAGUCCGACGAUC … UGGAAUUCUCGGGUGCCAA
Construct (chain): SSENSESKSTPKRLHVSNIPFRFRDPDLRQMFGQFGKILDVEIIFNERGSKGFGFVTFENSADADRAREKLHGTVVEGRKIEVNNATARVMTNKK
GUGCACCUGUUUGUUCUGCUAGGUUUAGGUUGAGCUCUGGAGUUGUUUGAAGUCUGCGAUGAAAAAUAAUUUUUAAAAGUAUUAAGAACACUAAAAUGGAUUAGAAUUAU: 1.29
CUGUGUAGGUAAAUUUCCGUGAAAUUUUUGUACAAAAAAAAAGGUAAUGAAAGAACGUUGCAAAGAUCAUCUGCAUUAUAAUGAGUUGAUGCUGUUCUCACUCCUCUCUU: 0.757
UAGCCGCUGCCACCGUGUAUAAAUCCUGGUGUAUGCUCCUUAUCCUGGACAUGAAUGUAUUGUACACUGACGCGUCCCCACUCCUGUACAGCUGCUUUGUUUCUUUGCAA: 0.695
GGCCCCAUGAAGUGGGUGCCCCACUCACUUCUCUGAGAUCGAACGGACUGUGAAUCCGCUCUUUGUCGGAAGCUGAGCAAGCUGUGGCUUUUUUCCAACUCCGUGUGACG: 0.347
AAUUGCUGUUUUUGUUGCUGUAGUACCUUAUGAAUUCUUAAUUCAUUGAGACUUAGUGACCAUCUGGGUCCAUGUUAAUAUCAUAUAAUAGCAAAUUCCUUUCAGAAGUC: 0.587
AAAUGGCAUAUGGAUUAACUAUAAGAAAUGAAAUAAGUAAUUUAUUGUAAGACAACAUCAAGCCAUGGAAACUUGGCAGAAGAUUCAAAGCAGCUUAAACAGCACUUUUA: 0.297
UCUCUUACUGCCAUAGGAAAUUAUUUUAGGGGUUGGAGGUGGGACAAGCAGGCUUGUUUCCACCAAUAGUGCCAAAAAGAUAUUGCCUAAUGUGCACCUGUGAGGUGUAA: 0.314
CAUCCAGGCCCCCACCUUCUCGGCUUCUGGUUUUUCUUUCUUUUUGGUAGAACACAACAUCUACCAUUCAGUUAAACCUUCUUUAUCUCCUCCUUUGGCAUCCAUUUUUC: 0.653
AGGAAAGAAAGGAUAUAGGAAGAGAGGGAAGCAGAAGGCAGGCAUUUUUCUAUUUUCCCCACAAAUUAUUUCAAAAAAAAUCUGUAUUUUCUGGGAUAUGUCAUUGGCAA: 0.572
CCUGGCCUCCCCACCACUGGGUCAUGUCCUCUGCACCCAGGCCCUUCCAGCUGUUCCUGCCCGAGCGGUCCCAGGGUGUGCUGGGAACUGAUUCCCCUCCUUUGACUUCU: 0.563
AUUAAAAUAACUAUCAGGCAGAAGAAUCUUUCUUCUUGCCUAGGAUUUCAGCCAUGUGCGUGCGCUCUCUCUCUCUCUCUCUCUCUCUCUCUCUCUCUCUCUCUCUCUCU: 1.01
GGGAAGGUUGGAGCAGCCCCCAGGGAGGGGGGCACUAGGUGUCAUUGUGCCCGAUGUCUGGCUCCCCUGCAGGAGGGAGGCUCCAGGGUAAGACAGGGCUGGCAGGAGCA: 3.41

Series 4 — technique: competition protein-binding microarray; form: double-stranded DNA, one strand shown; sample: in vitro; tested at: 2 µM; added: Cbf1 competitor, 0.05 µM; direction: higher = stronger binding; measurement: fluorescence intensity; shared flanks, not repeated: … GTCTTGATTCGCTTGACGCTGCTG
Target: Phosphate system positive regulatory protein PHO4, full length, GST-tagged (PHO4, Saccharomyces cerevisiae, UniProt P07270, residues 1-312)
Notes: whole 60-bp probe, lowest competitor level
Construct (chain): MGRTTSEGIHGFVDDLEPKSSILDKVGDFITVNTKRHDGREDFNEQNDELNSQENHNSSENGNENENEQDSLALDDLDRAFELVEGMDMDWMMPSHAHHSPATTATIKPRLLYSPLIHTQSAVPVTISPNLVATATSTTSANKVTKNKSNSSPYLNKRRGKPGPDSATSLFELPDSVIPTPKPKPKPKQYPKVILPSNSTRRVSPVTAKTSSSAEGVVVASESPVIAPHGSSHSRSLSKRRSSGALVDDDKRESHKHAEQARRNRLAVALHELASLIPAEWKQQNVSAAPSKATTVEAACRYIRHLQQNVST
CGTAAATATCAACTTGTCGTGCTAATAAGCACTAAC: 6560 a.u.
GCGTCGTTTGTAGCCGACGTGCTTTATTTATACGGT: 6610 a.u.
CTTCTGTAAATTTGTCACGATACTTGACGCGCCCCG: 5660 a.u.
GTCTTGTCTCATTGGCTTGTGGGTGTCCCCACTTCA: 5350 a.u.
CACTACCACTGCGCACCCGTGACGGTGCTCCAAAGT: 7370 a.u.
CCTTGGCTGCCAAGGCCCGTGGTGAGCCATTGACCT: 7260 a.u.
CCGACGAAACCGTTCCACGTGTGTTCGACTTGAAAA: 17500 a.u.
TTCCTGCTCTCGTTCCACGTTGTCATCCCACCCATT: 11800 a.u.
CTTTCCCGATCTTGCGCGGTGGGTGTAGCACATTTG: 4880 a.u.
CAAAGCCCTATTCGCGTCGTGACGGACTGAATGTCA: 4530 a.u.
GTCTTGTCTCATTGAGAAGTGGGTGTCCCCACTTCA: 3810 a.u.
TTAAAACACTAATGAAACGTGTTGAAGGGGCCCGAC: 12200 a.u.
CTTTCCCGATCTTGGGAAGTGGGTGTAGCACATTTG: 4500 a.u.
AAACAGAGCAACCATCACGTGCAAAAAGAACTACGA: 16900 a.u.
CTTGCAAACAGCGGCCACGTCGCATCAAGTGGTGGC: 6310 a.u.
CTTTCCCGATCTTTTCACGTGATATTAGCACATTTG: 12000 a.u.
AAATTACTAAGTTGAAAGGTGGGTGACGCCGTATGA: 4120 a.u.

Series 5 — target: NFIL3, bZIP domain (human); technique: DHFR protein complementation; sample: yeast; relative to: wild-type JUN-FOS pair; direction: higher = stronger binding; measurement: binding fitness
Notes: single substitutions, most at no-binding floor
Starting sequence: JUN, bZIP domain (human); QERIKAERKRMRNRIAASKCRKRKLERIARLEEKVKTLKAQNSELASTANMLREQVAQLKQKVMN; partner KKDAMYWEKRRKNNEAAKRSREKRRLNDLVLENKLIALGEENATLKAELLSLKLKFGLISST
A49P: -1.48 natural log
S43I: -1.55 natural log
E32A: -1.34 natural log
A46V: -1.48 natural log
L38Q: -1.55 natural log
T37Y: -1.3 natural log
L31P: -1.47 natural log
K39E: -1.34 natural log
V56A: -1.47 natural log
A57M: -1.28 natural log
N42L: -1.45 natural log
S47I: -1.54 natural log
L52E: -1.55 natural log
A57V: -1.26 natural log
T48V: -1.51 natural log
L38E: -1.43 natural log
S43G: -1.41 natural log
A40L: -1.33 natural log

Excerpt of the above (series 1):
AATCTTGG: -0.0987
CCCAAGCG: 0.118
CGTACGGA: -0.13
GCGTAGTA: -0.127
ACACGCGT: -0.0286
CCGTGGAC: -0.0962
AACTGTGT: -0.127
GATCGTAC: -0.233
AGCCTAGG: 0.0451
GACTTCGA: -0.128
TAAAGTAA: -0.109
ACCCCCTC: 0.0861
GCCCGAGC: 0.199
CGCTATTA: 0.0215
GAGTATCC: 0.0564
